{"data": "Assay results from different studies", "note": "Values joined by “and” are separate records of one study, mostly repeats; a detail may differ. ± gives the spread as reported."}
{"SMILES": "Cc1c2ccncc2c(C)c2c1[nH]c1ccccc12", "cell line": "ARPE-19", "read-out": "cytotoxicity", "method": "CCK-8", "time": "48 h", "IC50": "1.12 ± 0.158 µM"}
{"SMILES": "Oc1cccc2cccnc12.Oc1cccc2cccnc12.[Cl][Fe]([Cl])[Cl]", "cell line": "BL2 Burkitt lymphoma cells", "read-out": "cell viability", "method": "MTT", "time": "48 h", "IC50": "~1 µM"}
{"SMILES": "CCCCCCCC(=O)NCCCC[C@H](NC(=O)CCCCCCC)C(=O)N[C@@H](CCCCNC(=O)CCCCCCC)C(=O)NCC(=O)NCC(=O)NCC(=O)N[C@@H](CS)C(=O)N[C@@H](CCCNC(=N)N)C(=O)N[C@@H](CCCCN)C(=O)N1CCC[C@H]1C(N)=O", "cell line": "HEK293", "read-out": "cell growth or viability", "method": "MTT", "time": "24 h", "IC50": "555 µM"}
{"SMILES": "CC(C)C12OC1C1OC13C1(C)CCC4=C(COC4=O)C1CC1OC13C2OC(=O)CCCOC1OC(CO)C(O)C(O)C1O (centres unmarked)", "cell line": "NCI-H1299", "read-out": "cell growth or viability", "method": "XTT", "time": "47 h", "IC50": "11.5 µM"}
{"SMILES": "Cc1cc(Oc2nc(N3CC[C@@H](c4ccncc4)C3)ncc2F)[nH]n1", "cell line": "prostate cancer cell lines", "read-out": "cell proliferation", "setting": "average over lines", "IC50": "75.9 µM"}
{"SMILES": "CC(C)C12OC1C1OC13C1(C)CCC4=C(COC4=O)C1CC1OC13C2OC(=O)CCC(=O)OC1OC(CO)C(O)C(O)C1O (centres unmarked)", "cell line": "LNCaP", "read-out": "cell growth or viability", "method": "XTT", "time": "47 h", "IC50": "0.56 µM"}
{"SMILES": "CC[C@H](C)[C@@H]([C@@H](CC(=O)N1CCC[C@H]1[C@H](OC)[C@@H](C)C(=O)N[C@H](C)[C@@H](O)c1ccccc1)OC)N(C)C(=O)[C@@H](NC(=O)[C@H](C(C)C)N(C)C(=O)OCc1ccc(NC(=O)[C@H](CCCNC(N)=O)NC(=O)[C@@H](NC(=O)CCCc2cn(CC(=O)N[C@@H](CCCCNC(=O)CC[C@H](NC(=O)c3ccc(NCc4cnc5nc(N)[nH]c(=O)c5n4)cc3)C(=O)O)C(=O)NCCCC[C@H]3NC(=O)[C@H](CCCCN)NC(=O)[C@H](CCCNC(N)=O)NC(=O)[C@H](Cc4ccc(O)cc4)NC(=O)[C@@H](NC(=O)[C@H](Cc4ccc5ccccc5c4)NC(=O)[C@H](CCCNC(=N)N)NC(=O)[C@@H](N)CCCNC(=N)N)CSSC[C@@H](C(=O)N[C@@H](CCCNC(=N)N)C(N)=O)NC(=O)[C@H](CCCNC(N)=O)NC(=O)[C@H](CCCNC(=N)N)NC(=O)[C@H](Cc4ccc(O)cc4)NC(=O)[C@@H]4CCCN4C3=O)nn2)C(C)C)cc1)C(C)C", "cell line": "Daudi", "read-out": "cell growth or viability", "method": "CCK-8", "IC50": "0.512 µM"}
{"SMILES": "CC1CCC2C(C)C(OC(=O)CCC(=O)N3CCN(CC(=O)Nc4ccc([N+](=O)[O-])c(C(F)(F)F)c4)CC3)OC3OC4(C)CCC1C32OO4 (centres unmarked)", "cell line": "A2780", "read-out": "cell growth or viability", "method": "CCK-8", "IC50": "0.78 µM"}
{"SMILES": "CC(=O)[C@@H]1CCCN1C(=O)[C@@H]1CCCN1C(=O)[C@H](Cc1ccccc1)NC(=O)[C@@H](NC(=O)[C@@H](NC(=O)[C@@H](NC(=O)[C@@H]1CCCN1C(=O)[C@H](C)NC(=O)OC(C)(C)C)C(C)C)C(C)C)C(C)C", "cell line": "HEK293", "read-out": "cell growth or viability", "method": "SRB", "IC50": "423 µM and 355 µM and 309 µM"}
{"SMILES": "CC(=O)N[C@H](C(=O)N[C@@H](CCCNC(=N)N)C(=O)N[C@@H](CCCCN)C(=O)N[C@@H](CCCNC(=N)N)C(=O)N[C@]1(C)CCCCCCC=CCCC[C@@](C)(C(=O)N[C@@H](CCCNC(=N)N)C(=O)N[C@@H](CCC(=O)O)C(=O)N[C@@H](CC(C)C)C(=O)N[C@H](C(=O)N[C@@H](CCC(=O)O)C(N)=O)C(C)C)NC(=O)[C@H](CCC(N)=O)NC(=O)[C@H](CC(C)C)NC(=O)[C@H](CC(C)C)NC(=O)[C@H](CCCNC(=N)N)NC(=O)[C@H](CCCNC(=N)N)NC(=O)[C@H](CC(C)C)NC1=O)C(C)C", "cell line": "A-431 (wild-type EGFR)", "read-out": "cell viability", "time": "18 h", "IC50": "2.88 ± 0.41 µM"}
{"SMILES": "Cc1cc(Nc2nc(C[C@@]3(C(=O)O)CCN(Cc4cccc(Cl)c4F)[C@H](C)C3)cc(C)c2F)[nH]n1", "cell line": "SK-N-SH", "read-out": "cell growth or viability", "method": "ATP luminescence", "time": "5 days", "IC50": "0.0251 µM"}
{"SMILES": "CCC1=C(C)C2=C(c3ccc(C(=O)NCCNC(=O)c4ccc(P(=NC(=O)c5ccccn5)(c5ccccc5)c5ccccc5)cc4)cc3)c3c(C)c(CC)c(C)n3[B-](F)(F)[N+]2=C1C", "cell line": "IMR-90", "read-out": "cell growth or viability", "method": "MTT", "IC50": "> 250 µM"}
{"SMILES": "O=C1C=CC(=O)c2c(O)cccc21", "cell line": "MOLT-3", "read-out": "cell growth or viability", "method": "XTT", "IC50": "7.93 µM"}
{"SMILES": "CC[C@H](C)[C@H](NC(=O)[C@H](CCCCN)NC(=O)[C@@H](NC(=O)[C@H](CCC(N)=O)NC(=O)[C@H](CCCNC(=N)N)NC(=O)[C@H](CC(C)C)NC(=O)CNC(=O)[C@H](Cc1ccccc1)NC(=O)CNC(=O)[C@H](Cc1ccc(O)cc1)NC(=O)CNC(=O)[C@H](CCCCN)NC(=O)[C@@H](NC(=O)[C@H](Cc1ccccc1)NC(=O)[C@@H](NC(=O)[C@H](CC(=O)O)NC(=O)[C@H](CCCNC(=N)N)NC(=O)[C@H](C)NC(=O)[C@H](CO)NC(=O)[C@H](CCCCN)NC(=O)CNC(=O)[C@H](CC(C)C)NC(=O)[C@H](CC(=O)O)NC(=O)[C@H](C)NC(=O)[C@H](Cc1ccc(O)cc1)NC(=O)[C@@H](NC(=O)[C@@H]1CCCN1)[C@@H](C)O)C(C)C)[C@@H](C)O)[C@@H](C)CC)C(=O)N[C@@H](Cc1c[nH]c2ccccc12)C(=O)N[C@@H](Cc1ccccc1)C(=O)N[C@@H](CCC(N)=O)C(=O)N[C@@H](CC(N)=O)C(=O)N[C@@H](CCCNC(=N)N)C(=O)N[C@@H](CCCNC(=N)N)C(=O)N[C@@H](CCSC)C(=O)N[C@@H](CCCCN)C(=O)N[C@@H](Cc1c[nH]c2ccccc12)C(=O)N[C@@H](CCCCN)C(=O)N[C@@H](CCCCN)C(=O)O", "cell line": "MEC1", "read-out": "cell growth or viability", "method": "flow cytometry", "time": "90 min", "IC50": "4.2 µM"}
{"SMILES": "CC(=O)N[C@H](C(=O)N[C@@H](CCCNC(=N)N)C(=O)N[C@@H](CCCCN)C(=O)N[C@@H](CCCNC(=N)N)C(=O)N[C@H](C(=O)N[C@@H](CC(C)C)C(=O)N[C@@H](CCCNC(=N)N)C(=O)N[C@]1(C)CCCC=CCCC[C@@](C)(C(=O)N[C@@H](CCC(=O)O)C(=O)N[C@@H](CCCNC(=N)N)C(=O)N[C@@H](CCC(=O)O)C(=O)N[C@@H](CC(C)C)C(=O)N[C@H](C(=O)N[C@@H](CCC(=O)O)C(N)=O)C(C)C)NC(=O)[C@H](CC(C)C)NC(=O)[C@H](CC(C)C)NC1=O)[C@@H](C)O)C(C)C", "cell line": "A-431", "read-out": "cell viability", "time": "18 h", "setting": "serum-free", "IC50": "> 100 µM"}
{"SMILES": "CC[C@@H](C)[C@@H](NC(=O)[C@@H](CCCCN)NC(=O)[C@H](NC(=O)[C@@H](CCC(N)=O)NC(=O)[C@@H](CCCNC(=N)N)NC(=O)[C@@H](CC(C)C)NC(=O)CNC(=O)[C@@H](Cc1ccccc1)NC(=O)CNC(=O)[C@@H](Cc1ccc(O)cc1)NC(=O)CNC(=O)[C@@H](CCCCN)NC(=O)[C@H](NC(=O)[C@@H](Cc1ccccc1)NC(=O)[C@H](NC(=O)[C@@H](CC(=O)O)NC(=O)[C@@H](CCCNC(=N)N)NC(=O)[C@@H](C)NC(=O)[C@@H](CO)NC(=O)[C@@H](CCCCN)NC(=O)CN)C(C)C)[C@H](C)O)[C@H](C)CC)C(=O)N[C@H](Cc1c[nH]c2ccccc12)C(=O)N[C@H](Cc1ccccc1)C(=O)N[C@H](CCC(N)=O)C(=O)N[C@H](CC(N)=O)C(=O)N[C@H](CCCNC(=N)N)C(=O)N[C@H](CCCNC(=N)N)C(=O)N[C@H](CCSC)C(=O)N[C@H](CCCCN)C(=O)N[C@H](Cc1c[nH]c2ccccc12)C(=O)N[C@H](CCCCN)C(=O)N[C@H](CCCCN)C(=O)O", "cell line": "MEC1", "read-out": "cell growth or viability", "method": "flow cytometry", "time": "90 min", "IC50": "1.9 µM"}
{"SMILES": "CC(=O)N[C@H](C(=O)N[C@@H](CCCNC(=N)N)C(=O)N[C@@H](CCCCN)C(=O)N[C@@H](CCCNC(=N)N)C(=O)N[C@@]1(C)CCCC=CCCC[C@@](C)(C(=O)N[C@@H](CC(C)C)C(=O)N[C@@H](CCC(N)=O)C(=O)N[C@@H](CCC(=O)O)C(=O)N[C@@H](CCCNC(=N)N)C(=O)N[C@@H](CCC(=O)O)C(=O)N[C@@H](CC(C)C)C(=O)N[C@H](C(=O)N[C@@H](CCC(=O)O)C(N)=O)C(C)C)NC(=O)[C@H](CCCNC(=N)N)NC(=O)[C@H](CCCNC(=N)N)NC(=O)[C@H](CC(C)C)NC1=O)C(C)C", "cell line": "A-431", "read-out": "cell viability", "time": "18 h", "setting": "serum-free", "IC50": "> 100 µM"}
{"SMILES": "O[C@]12C=C(c3nccc4c3[nH]c3ccccc34)[C@@H]3CCN(CCCC/C=C\\CC1)C[C@@]31C[C@@H]3/C=C\\CCCCN3[C@H]12", "cell line": "LLC-PK11", "read-out": "cell growth or viability", "method": "neutral red", "time": "48 h", "IC50": "2.15 µg/mL"}
{"SMILES": "COc1ccccc1-c1ccncc1C(=O)Nc1nnc(OCc2ccc(Cl)cc2)s1", "cell line": "DLD-1 BRCA2-knockout", "read-out": "colony survival", "IC50": "~1 µM"}
{"SMILES": "CC(=O)N[C@H](C(=O)N[C@@H](CCCNC(=N)N)C(=O)N[C@@H](CCCCN)C(=O)N[C@@H](CCCNC(=N)N)C(=O)N[C@H](C(=O)N[C@@]1(C)CCCC=CCCC[C@@](C)(C(=O)N[C@@H](CCC(N)=O)C(=O)N[C@@H](CCC(=O)O)C(=O)N[C@@H](CCCNC(=N)N)C(=O)N[C@@H](CCC(=O)O)C(=O)N[C@@H](CC(C)C)C(=O)N[C@H](C(=O)N[C@@H](CCC(=O)O)C(N)=O)C(C)C)NC(=O)[C@H](CC(C)C)NC(=O)[C@H](CCCNC(=N)N)NC(=O)[C@H](CCCNC(=N)N)NC1=O)[C@@H](C)O)C(C)C", "cell line": "A-431 (wild-type EGFR)", "read-out": "cell viability", "time": "18 h", "IC50": "> 50 µM"}
{"note": "Excerpt of the above:"}
{"SMILES": "Cc1c2ccncc2c(C)c2c1[nH]c1ccccc12", "cell line": "ARPE-19", "read-out": "cytotoxicity", "method": "CCK-8", "time": "48 h", "IC50": "1.12 ± 0.158 µM"}
{"SMILES": "COc1ccccc1-c1ccncc1C(=O)Nc1nnc(OCc2ccc(Cl)cc2)s1", "cell line": "DLD-1 BRCA2-knockout", "read-out": "colony survival", "IC50": "~1 µM"}
